Results collected from several papers.
Each line is one published result; not all experiments were run side by side.
Target: Mitogen-activated protein kinase kinase kinase 2 (MAP3K2, Homo sapiens, UniProt Q9Y2U5)

SMILES | assay | test system | setting | endpoint | result
CNC(=O)C[C@H](Cc1ccc(C#N)cc1)NC(=O)c1cc(-c2ccc(CN[C@H](C)c3ccc(C)cc3)o2)ccc1Cl | enzyme activity, inhibitor | – | 1 µM | activity vs control | 108%
Cc1cc(NC(=O)[C@H](O)c2cc(F)cc(F)c2)ccc1-c1cnc(N)c(C(=O)NC(C)C)c1 | binding, competition with immobilised ligand | – | 1 µM | remaining binding | 61%
Nc1ncc2c(n1)-c1c([nH]c3ccc(C4=CCOCC4)cc13)CCC2 | binding, competition with immobilised ligand | – | 1 µM | remaining binding | 87%
CN1CC[C@@H](COc2cnc(C#N)cc2-c2ccn3nc(NC(=O)C4CC4)cc3c2)C1 | enzyme activity, inhibitor | – | 1 µM | inhibition | 3%
Cc1cnc2nc1Nc1cccc(c1)COC/C=C/COCc1cc(ccc1OCCN1CCOCC1)N2 | binding | – | 0.1 µM | remaining binding | 74%
CCN1CCN(Cc2ccc(C(=O)Nc3ccc(C)c(NCc4cnc5[nH]ccc5c4OC)c3)cc2C(F)(F)F)CC1 | binding, competition with immobilised ligand | – | 1 µM | remaining binding | 22%
NC(=O)C[C@H]1CCc2sc3ncnc(O[C@H]4CC[C@H](N5CCOCC5)CC4)c3c21 | enzyme activity, inhibitor | – | 10 µM | inhibition | 4%
CCn1cc(C(=O)O)c(=O)c2c(N)c(F)c(NC3CCCCC3)cc21 | kinase activity | – | 0.1 µM, together with: ATP at Km | inhibition | -27.1%
COc1c(Cl)cccc1Nc1c(-c2ccncc2C#C[C@@]2(C)CCCN2C(=O)/C=C/CN(C)C)[nH]c2c1C(=O)NCC2 | binding, competition with immobilised ligand | – | 3 µM | remaining binding | 100%
CN1CCN(Cc2ccc(-c3ccc(CO[C@H]4CCC[C@@H]4NC(=O)c4cc(-c5cnn(C)c5)cnc4N)cc3)cc2)CC1 | enzyme activity, inhibitor | – | 0.1 µM | inhibition | -3%
CS(=O)(=O)Nc1cccc(-c2csc3cnc(Nc4ccc(N5CCN(CCCCCOc6cccc7c6C(=O)N(C6CCC(=O)NC6=O)C7=O)CC5)cc4)nc23)c1 (stereo not drawn) | probe labelling, inhibitor, KiNativ chemoproteomics | MOLT-4 | 1 µM | inhibition | -28.8%
CC(C)=CC1OC(C)(C)C2C=C3C(=O)C(Cl)=CC(O)C3C3C(O)C4OC4C(=O)C132 (stereo not drawn) | cell-free assay, competition with immobilised ligand | – | 10 µM | remaining binding | 63%

Some of these lines once more:
SMILES | assay | test system | setting | endpoint | result
NC(=O)C[C@H]1CCc2sc3ncnc(O[C@H]4CC[C@H](N5CCOCC5)CC4)c3c21 | enzyme activity, inhibitor | – | 10 µM | inhibition | 4%
